{"data": "Results gathered from unrelated publications", "note": "Compare with care: the assays were run in different laboratories. ± gives the spread as reported."}
{"SMILES": "CC[C@H](C)[C@H](NC(=O)[C@H](CCCNC(=N)N)NC(=O)[C@H](CCCCN)NC(=O)[C@H](CC(C)C)NC(=O)[C@H](CC(C)C)NC(=O)CN)C(=O)N[C@@H](CCCCN)C(=O)N[C@H](C(=O)N[C@@H](CC(C)C)C(=O)N[C@@H](CC(C)C)C(=O)NCCCC[C@H](NC(=O)[C@H](CC(C)C)NC(=O)[C@H](CC(C)C)NC(=O)[C@@H](NC(=O)[C@H](CCCCN)NC(=O)[C@@H](NC(=O)[C@H](CCCNC(=N)N)NC(=O)[C@H](CCCCN)NC(=O)[C@H](CC(C)C)NC(=O)[C@H](CC(C)C)NC(=O)CN)[C@@H](C)CC)[C@@H](C)O)C(N)=O)[C@@H](C)O", "organism": "five bacterial species", "assay": "bacterial growth", "endpoint": "geometric mean MIC", "value": "8 µM"}
{"SMILES": "CC(=C(c1ccc(Cl)cc1)c1ccc(OCCN2CCCC2)cc1)c1ccc(Cl)cc1", "organism": "influenza A virus H1N1", "assay": "cytopathic effect, visual CPE", "test system": "MDCK", "endpoint": "EC50", "value": "3.2 µg/mL"}
{"SMILES": "CC(C)C[C@H](NC(=O)[C@H](CC(N)=O)NC(=O)[C@H](CCCCN)NC(=O)[C@H](CC(C)C)NC(=O)[C@H](Cc1ccccc1)NC(=O)CNC(=O)[C@H](CC(C)C)NC(=O)[C@@H](N)Cc1ccccc1)C(=O)N[C@@H](Cc1ccccc1)C(N)=O", "organism": "hepatitis C virus", "test system": "Huh-7.5.1, JFH-1", "setting": "concentration not given, added after infection, together with: 3 mM Ca2+", "scale": "reference: Ca2+ alone", "endpoint": "HCV RNA reduction", "value": "90%"}
{"SMILES": "CCC(=C(c1ccc(Cl)cc1)c1ccc(OCCN2CCCCCC2)cc1)c1ccccc1", "organism": "influenza A virus H1N1", "assay": "cytopathic effect, visual CPE", "test system": "MDCK", "endpoint": "EC50", "value": "> 2.4 µg/mL"}
{"SMILES": "Fc1ccc(-c2ccc(Cn3ccnc3)c(F)c2)c(F)c1", "organism": "Mycobacterium tuberculosis variant bovis BCG", "assay": "microbial growth", "test system": "BCG", "endpoint": "MIC50", "value": "1.2 µg/mL"}
{"SMILES": "CCCCCCCC(=O)NCC(=O)N[C@@H](CC(C)C)C(=O)N[C@@H](CC(C)C)C(=O)N[C@@H](CCCCN)C(=O)N[C@@H](CCCNC(=N)N)C(=O)N[C@H](C(=O)N[C@@H](CCCCN)C(=O)N[C@H](C(=O)N[C@@H](CC(C)C)C(=O)N[C@@H](CC(C)C)C(=O)NCCCC[C@H](NC(=O)[C@H](CC(C)C)NC(=O)[C@H](CC(C)C)NC(=O)[C@@H](NC(=O)[C@H](CCCCN)NC(=O)[C@@H](NC(=O)[C@H](CCCNC(=N)N)NC(=O)[C@H](CCCCN)NC(=O)[C@H](CC(C)C)NC(=O)[C@H](CC(C)C)NC(=O)CNC(=O)CCCCCCC)[C@@H](C)CC)[C@@H](C)O)C(N)=O)[C@@H](C)O)[C@@H](C)CC", "organism": "five bacterial species", "assay": "bacterial growth", "endpoint": "geometric mean MIC", "value": "42.2 µM"}
{"SMILES": "CCN(CC)CCOc1ccc(C(=C(C)c2ccc(Cl)cc2)c2ccc(Cl)cc2)cc1", "organism": "influenza A virus H1N1", "assay": "cytopathic effect, visual CPE", "test system": "MDCK", "endpoint": "EC50", "value": "> 0.71 µg/mL"}
{"SMILES": "COc1ccc2nc(C)cc(OCC(=O)Nc3ccccc3OC)c2c1", "organism": "Mycobacterium tuberculosis variant bovis BCG", "assay": "microbial growth", "test system": "THP-1, BCG", "setting": "intracellular", "endpoint": "MIC", "value": "> 10 µM"}
{"SMILES": "O=C(CN1CCCC2=CC3CC(CN4CCCCC34)C21)Nc1ccc(Br)cc1 (stereo not drawn)", "organism": "vesicular stomatitis virus", "assay": "pseudovirus entry", "setting": "VSV G pseudovirus", "endpoint": "EC50", "value": "79.9 µM"}
{"SMILES": "CC(C)C[C@H](NC(=O)[C@H](Cc1c[nH]cn1)NC(=O)[C@H](Cc1ccc(O)cc1)NC(=O)[C@H](CCCNC(=N)N)NC(=O)[C@H](Cc1ccc(O)cc1)NC(=O)[C@H](CCCCN)NC(=O)[C@H](CCCCN)NC(=O)c1ccc(CN/C(=N/C(=O)c2ccccc2)Nc2ccc(Br)cc2)cc1)C(=O)N[C@@H](CCCCN)C(=O)N1CCC[C@H]1C(=O)N[C@@H](Cc1ccccc1)C(=O)NCCCC[C@H](NC(=O)[C@H](Cc1ccccc1)NC(=O)[C@@H]1CCCN1C(=O)[C@H](CCCCN)NC(=O)[C@H](CC(C)C)NC(=O)[C@H](Cc1c[nH]cn1)NC(=O)[C@H](Cc1ccc(O)cc1)NC(=O)[C@H](CCCNC(=N)N)NC(=O)[C@H](Cc1ccc(O)cc1)NC(=O)[C@H](CCCCN)NC(=O)[C@H](CCCCN)NC(=O)c1ccc(CN/C(=N/C(=O)c2ccccc2)Nc2ccc(Br)cc2)cc1)C(N)=O", "organism": "Leishmania amazonensis", "assay": "intracellular amastigote growth, Giemsa staining", "test system": "infected macrophages", "setting": "24 h", "endpoint": "IC50", "value": "2.25 ± 0.35 µM"}
{"SMILES": "Cc1ccc2ccc3ccc(C)nc3c2n1.Cc1ccc2ccc3ccc(C)nc3c2n1.O.[Cl-].[Cl-].[Cl-].[Yb+3]", "organism": "Salmonella enterica serovar Typhi", "setting": "5 mg/mL, 4 to 48 h", "endpoint": "bacterial count decrease", "value": "~100%"}
{"SMILES": "CCc1ccc([C@@H]2C[C@H](C(F)(F)F)n3ncc(C(=O)NCc4ccc(OC)cc4)c3N2)cc1", "organism": "Mycobacterium tuberculosis variant bovis BCG", "assay": "microbial growth", "test system": "BCG", "endpoint": "MIC", "value": "2.7 µM"}
{"SMILES": "CC(=C(c1ccc(Cl)cc1)c1ccc(OCCN2CCOCC2)cc1)c1ccc(Cl)cc1", "organism": "influenza A virus H1N1", "assay": "cytopathic effect, visual CPE", "test system": "MDCK", "endpoint": "EC50", "value": "> 7.1 µg/mL"}
{"SMILES": "CCCCCCCCCC(=O)NCC(=O)N[C@@H](CC(C)C)C(=O)N[C@@H](CC(C)C)C(=O)N[C@@H](CCCCN)C(=O)N[C@@H](CCCNC(=N)N)C(=O)N[C@H](C(=O)N[C@@H](CCCCN)C(=O)N[C@H](C(=O)N[C@@H](CC(C)C)C(=O)N[C@@H](CC(C)C)C(N)=O)[C@@H](C)O)[C@@H](C)CC", "organism": "five bacterial species", "assay": "bacterial growth", "endpoint": "geometric mean MIC", "value": "10.6 µM"}
{"SMILES": "C(=C\\c1ccc(-c2ccccc2)cc1)/Cn1ccnc1", "organism": "Mycobacterium tuberculosis variant bovis BCG", "assay": "microbial growth", "test system": "BCG", "endpoint": "MIC50", "value": "0.7 µg/mL"}
{"SMILES": "Cc1ccc2nc(C)c(C(=O)NCc3cccs3)n2c1", "organism": "Moraxella catarrhalis", "assay": "microbial growth, broth dilution", "test system": "1502", "endpoint": "MIC", "value": "> 64 µM"}
{"SMILES": "O=S(=O)(c1ccc(Cl)c(Cl)c1)N1CCCC2=CC3CC(CN4CCCCC34)C21 (stereo not drawn)", "organism": "vesicular stomatitis virus", "assay": "pseudovirus entry", "setting": "VSV G pseudovirus", "endpoint": "EC50", "value": "176 µM"}
{"SMILES": "COc1ccc(CCNc2cc(-c3ccccc3)nc3ncnn23)cc1", "organism": "Moraxella catarrhalis", "assay": "microbial growth, broth dilution", "test system": "1502", "endpoint": "MIC", "value": "32 µM"}
{"SMILES": "Clc1ccc(CN2CCCC3=CC4CC(CN5CCCCC45)C32)cc1 (stereo not drawn)", "organism": "vesicular stomatitis virus", "assay": "pseudovirus entry", "setting": "VSV G pseudovirus", "endpoint": "EC50", "value": "40.2 µM"}
{"SMILES": "Cc1nc([C@H](NC(=O)c2ccc(-c3ccc(Cl)cc3)[nH]2)[C@@H]2CCCCN2)sc1CO", "organism": "vesicular stomatitis virus", "assay": "viral entry", "test system": "VSV-G pseudovirus", "endpoint": "IC50", "value": "8.1 ± 1 µM"}
{"SMILES": "O=C(CNc1ccc(I)cc1)N1CCCC2=CC3CC(CN4CCCCC34)C21 (stereo not drawn)", "organism": "vesicular stomatitis virus", "assay": "pseudovirus entry", "setting": "VSV G pseudovirus", "endpoint": "EC50", "value": "50.2 µM"}
{"SMILES": "CCC(=C(c1ccc(Cl)cc1)c1ccc(OCCN2CCOCC2)cc1)c1ccc(Cl)cc1", "organism": "influenza A virus H1N1", "assay": "cytopathic effect, visual CPE", "test system": "MDCK", "endpoint": "EC50", "value": "> 8.4 µg/mL"}
{"SMILES": "Cc1cccc(-c2nc(Nc3ccncn3)c3sccc3n2)n1", "organism": "Mycobacterium tuberculosis variant bovis BCG", "assay": "microbial growth", "test system": "BCG", "endpoint": "MIC", "value": "0.3 µM"}
{"SMILES": "COc1ccc(CC(C)=C(c2ccc(Cl)cc2)c2ccc(OCCN3CCCC3)cc2)cc1", "organism": "influenza A virus H1N1", "assay": "cytopathic effect, visual CPE", "test system": "MDCK", "endpoint": "EC50", "value": "> 3.2 µg/mL"}
{"SMILES": "Cc1ccc(NCC(=O)N2CCCC3=CC4CC(CN5CCCCC45)C32)cc1 (stereo not drawn)", "organism": "vesicular stomatitis virus", "assay": "pseudovirus entry", "setting": "VSV G pseudovirus", "endpoint": "EC50", "value": "> 267 µM"}
{"SMILES": "CCC(=C(c1ccc(Cl)cc1)c1ccc(OCCN2CCOCC2)cc1)c1ccccc1", "organism": "influenza A virus H1N1", "assay": "cytopathic effect, visual CPE", "test system": "MDCK", "endpoint": "EC50", "value": "> 32 µg/mL"}
{"SMILES": "COc1cccc(CN2CCCC3=CC4CC(CN5CCCCC45)C32)c1 (stereo not drawn)", "organism": "vesicular stomatitis virus", "assay": "pseudovirus entry", "setting": "VSV G pseudovirus", "endpoint": "EC50", "value": "15.9 µM"}
{"SMILES": "Cc1ccc2nc(C(F)(F)F)c(C(=O)NCc3cccc(Cl)c3)n2c1", "organism": "Moraxella catarrhalis", "assay": "microbial growth, broth dilution", "test system": "1502", "endpoint": "MIC", "value": "64 µM"}
{"SMILES": "Clc1cc(Cl)cc(CCCN2CCCC3=CC4CC(CN5CCCCC45)C32)c1 (stereo not drawn)", "organism": "vesicular stomatitis virus", "assay": "pseudovirus entry", "setting": "VSV G pseudovirus", "endpoint": "EC50", "value": "6.9 µM"}
{"SMILES": "COc1ccc2nc(C)cc(OCC(=O)Nc3cc(C)cc(C)c3)c2c1", "organism": "Moraxella catarrhalis", "assay": "microbial growth, broth dilution", "test system": "1502", "endpoint": "MIC", "value": "32 µM"}
{"note": "Excerpt of the above:"}
{"SMILES": "Clc1ccc(CN2CCCC3=CC4CC(CN5CCCCC45)C32)cc1 (stereo not drawn)", "organism": "vesicular stomatitis virus", "assay": "pseudovirus entry", "setting": "VSV G pseudovirus", "endpoint": "EC50", "value": "40.2 µM"}
{"SMILES": "CC(C)C[C@H](NC(=O)[C@H](Cc1c[nH]cn1)NC(=O)[C@H](Cc1ccc(O)cc1)NC(=O)[C@H](CCCNC(=N)N)NC(=O)[C@H](Cc1ccc(O)cc1)NC(=O)[C@H](CCCCN)NC(=O)[C@H](CCCCN)NC(=O)c1ccc(CN/C(=N/C(=O)c2ccccc2)Nc2ccc(Br)cc2)cc1)C(=O)N[C@@H](CCCCN)C(=O)N1CCC[C@H]1C(=O)N[C@@H](Cc1ccccc1)C(=O)NCCCC[C@H](NC(=O)[C@H](Cc1ccccc1)NC(=O)[C@@H]1CCCN1C(=O)[C@H](CCCCN)NC(=O)[C@H](CC(C)C)NC(=O)[C@H](Cc1c[nH]cn1)NC(=O)[C@H](Cc1ccc(O)cc1)NC(=O)[C@H](CCCNC(=N)N)NC(=O)[C@H](Cc1ccc(O)cc1)NC(=O)[C@H](CCCCN)NC(=O)[C@H](CCCCN)NC(=O)c1ccc(CN/C(=N/C(=O)c2ccccc2)Nc2ccc(Br)cc2)cc1)C(N)=O", "organism": "Leishmania amazonensis", "assay": "intracellular amastigote growth, Giemsa staining", "test system": "infected macrophages", "setting": "24 h", "endpoint": "IC50", "value": "2.25 ± 0.35 µM"}
{"SMILES": "COc1ccc2nc(C)cc(OCC(=O)Nc3cc(C)cc(C)c3)c2c1", "organism": "Moraxella catarrhalis", "assay": "microbial growth, broth dilution", "test system": "1502", "endpoint": "MIC", "value": "32 µM"}
{"SMILES": "Cc1ccc(NCC(=O)N2CCCC3=CC4CC(CN5CCCCC45)C32)cc1 (stereo not drawn)", "organism": "vesicular stomatitis virus", "assay": "pseudovirus entry", "setting": "VSV G pseudovirus", "endpoint": "EC50", "value": "> 267 µM"}
{"SMILES": "CCN(CC)CCOc1ccc(C(=C(C)c2ccc(Cl)cc2)c2ccc(Cl)cc2)cc1", "organism": "influenza A virus H1N1", "assay": "cytopathic effect, visual CPE", "test system": "MDCK", "endpoint": "EC50", "value": "> 0.71 µg/mL"}
